Experimental data gathered from unrelated publications.
Every numbered part comes from another study and shows a few of its results, in no order. Changes are numbered by the printed parent chain.

Sample 1 — technique: protein-binding microarray; molecule type: double-stranded DNA, one strand shown; matrix: in vitro; concentration: 250 nM; notes: 60-bp whole probe; with: salmon DNA 0.4 mg/ml; baseline: random background probes; reading: higher = stronger binding; quantity: log fluorescence; constant ends, left off below: GCCTAGCAC … GTCTTGATTCGCTTGACGCTGCTG
Target: Interferon regulatory factor 7, full length, phosphomimetic (IRF7, Homo sapiens, UniProt Q92985, residues 1-503, S101K/S471D/S472D/S475D/S476D/S477D/S483D/S484D/S487D)
UniProt Q92985, sequence (whole entry, unmodified, looked up): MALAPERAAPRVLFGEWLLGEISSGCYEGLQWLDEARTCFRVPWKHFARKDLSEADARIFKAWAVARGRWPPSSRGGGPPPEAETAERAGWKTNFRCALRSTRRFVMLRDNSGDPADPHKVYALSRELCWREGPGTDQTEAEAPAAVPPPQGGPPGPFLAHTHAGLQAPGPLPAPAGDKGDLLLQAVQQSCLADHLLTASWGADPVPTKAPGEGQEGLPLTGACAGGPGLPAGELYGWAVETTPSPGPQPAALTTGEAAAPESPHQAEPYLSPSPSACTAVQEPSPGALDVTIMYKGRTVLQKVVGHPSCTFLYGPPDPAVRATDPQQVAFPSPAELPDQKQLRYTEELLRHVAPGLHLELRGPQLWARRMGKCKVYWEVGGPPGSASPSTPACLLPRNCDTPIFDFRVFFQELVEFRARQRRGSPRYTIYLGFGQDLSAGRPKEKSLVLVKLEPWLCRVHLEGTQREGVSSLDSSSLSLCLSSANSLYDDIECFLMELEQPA
TTATAACTGAGTCTCGATTAGTGCTAG: 1.39 z-score
TTAGGTCTCGGTCTCCGTTAGTGCTAG: 1.72 z-score
TTAGAGCTCAGTATCGATTAGTGCTAG: 0.0431 z-score
GACGGTCTCCTACTGCTGACGTGCTAG: -0.373 z-score
TAGAGTAGCTTTCTGAGGGCGTGCTAG: -0.814 z-score
TTCGATATCGGGTTTCGATTAGTGCTA: 7.16 z-score
GACGGTATCGGTCTCGGGGCGTGCTAG: 0.359 z-score
TTTGCTTTCCTTTATGTACTGTGCTAG: 1.13 z-score
AACGGACTGCTTCTCCTGACGTGCTAG: -0.329 z-score
TCACTTTACACACATCATACTGTGCTA: 1.39 z-score
TTAGGTCTCGGACTGGGTTTGTGCTAG: 0.31 z-score
GCCGGACTGGGGACTGGGGACGTGCTA: -0.757 z-score
GACGGACTGGGCACTGGGGACGTGCTA: -0.692 z-score
GACGGTTTCGACACTGCGGACGTGCTA: 4.02 z-score
TTAGAACTGAGTTTTGATTAGTGCTAG: 0.48 z-score
GACGGTTTCCTTCTCCTGGCGTGCTAG: 2.74 z-score
TTAGGTTTCCTACTGTTTTAGTGCTAG: 1.49 z-score
TATTATATCTGTGTTATTAAGTGCTAG: 0.717 z-score
TCAGGTATCCTACTGCTTTAGTGCTAG: 0.0565 z-score

Sample 2 — technique: protein binding microarray; molecule type: double-stranded DNA, one strand shown; matrix: in vitro; concentration: not given; baseline: not given; reading: higher = stronger binding; quantity: E-score
Target: Histone acetyltransferase KAT6A, winged helix 1, GST fusion (KAT6A, Homo sapiens, UniProt Q92794, residues 1-85)
Notes: 8-mer, flanks averaged, mean of 2 arrays, mostly near background
Residues (chain): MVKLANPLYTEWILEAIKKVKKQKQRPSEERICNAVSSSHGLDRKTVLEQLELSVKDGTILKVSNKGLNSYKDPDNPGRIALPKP
CGGGACGC: 0.39
GACTCAAA: -0.148
TACGACTA: -0.0359
ACTGTGTC: -0.123
CGAGTCGC: 0.0877
GCATGAAC: -0.0381
ACGAGCAG: -0.11
GCAAGGGA: -0.0727
ATATCCGA: 0.116
GGCAAACC: 0.122
AACACTTC: -0.216
ACGTTACT: -0.0784
TACACTGA: -0.0995
AATGTGCC: 0.0187
ACTGGCAG: -0.0537
CTATTGCA: -0.144
ATGCACCC: 0.0347
CATAGCCA: -0.18
CTTCTCCA: -0.168
AGACCCTA: -0.0453
GCCTTACC: 0.0244
ATATAAAA: -0.217
AACGCTTC: -0.00971
GAACGTGC: 0.0822
AGAGTCAA: -0.0686

Sample 3 — target: CCND1, cyclin fold, Cln2 fusion (human); technique: yeast growth competition, sequencing; matrix: yeast; notes: weak parent motif; baseline: not given; reading: higher = stronger binding; quantity: normalised enrichment score
Parent: GMNC docking peptide (human); KNAKRNLSSEFAN; partner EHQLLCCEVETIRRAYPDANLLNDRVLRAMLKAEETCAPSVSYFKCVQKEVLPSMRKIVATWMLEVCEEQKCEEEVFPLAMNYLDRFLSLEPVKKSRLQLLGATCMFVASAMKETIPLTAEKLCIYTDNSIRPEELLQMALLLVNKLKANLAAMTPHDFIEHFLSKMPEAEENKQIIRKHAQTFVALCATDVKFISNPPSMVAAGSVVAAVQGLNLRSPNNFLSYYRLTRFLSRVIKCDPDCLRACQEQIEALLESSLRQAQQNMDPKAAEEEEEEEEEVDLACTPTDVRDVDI
R5N: 0.145
E10S: -0.108
E10G: 0.365
A12L: 0.332
A3K: 0.396
A12S: 0.4
S8M: 1.73
N6K: 0.0659
N6L: -0.369
L7T: 0.471
A3C: 0.404
F11D: 0.302
A12Q: 0.448
N2K: 0.916
R5S: 0.0317
K4H: -0.0483
L7Y: -0.0642
A12P: 0.208
A12W: 0.693
F11T: 0.194
R5A: 0.31

Sample 4 — technique: RNA Bind-n-Seq; molecule type: RNA; matrix: in vitro; concentration: 365 nM; baseline: no-protein control; reading: higher = stronger binding; quantity: RBNS enrichment (R)
Target: RNA binding protein fox-1 homolog 2, RRM domain, GST-SBP tag (RBFOX2, Homo sapiens, UniProt O43251-10, residues 100-194)
Notes: natural RNA segment, single round, ends assumed
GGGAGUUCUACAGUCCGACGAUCCUGUGGAAGAAGGAAGCUUUUGCGGUUGUUUCCUUGCUCCUGCUAGUAAGUCCAUGCCUUCAAUAGGAUUAGAGCCAACUUCAGGAUUCUGGAAUGUUAGGAAGAGCAGCUGGAAUUCUCGGGUGCCAA: 0.886
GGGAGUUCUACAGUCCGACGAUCAGGGUGAGACUGGCGUGCAGGCGUGUGACGGUGUGUUUGGAGUAUUGCCAUUCCCAUCGCUGUUAGCUCUAGAGCACAUCCAGAGCAUACGUUUACAGAGGAAACUUGAUUGGAAUUCUCGGGUGCCAA: 0.502
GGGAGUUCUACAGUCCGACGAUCACUGGUGUGUGUUCUCUAUAAGCUCCUGGCCCACUUGGCUUCACUUGAGCAGAAUGACUUGACUGAGUGGUUCUUUGUUGGCCUCAGUUGCUUUAUGUGGGCAUGAGAUGUGGAAUUCUCGGGUGCCAA: 1.39
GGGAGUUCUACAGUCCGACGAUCUGUGCUUCCCAGGGACAGAGCGUGUGCUGUGGCGGCUAGGCUCCUUGGAGGUCACAAGCAGCUGGCCAGGGUAAUGUCCCUUGGUCCAUGGGGCUGUGGCCCGUGCUGUAUGGAAUUCUCGGGUGCCAA: 0.513
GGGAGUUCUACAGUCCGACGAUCCACUAGGACCCUGUUGUAUCCUCAACUGCAAGUUUCUGGACUAGUCUCCCAACGUUUGCCUCCCAAUGUUGUCCCUUUCCUUCGUUCCCAUGGUAAAGCUCCUCUCGCUUUGGAAUUCUCGGGUGCCAA: 1.26
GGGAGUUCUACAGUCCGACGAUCAAAACACGGACCUUUUGGGUUAAAAGCUUUAACAUCUGUGAGGAAGAACUGGUCACAUGGGUUUGGAAUCUUUGAUUUCCCCUGUAUGAAUUGUACUGGCUGUUGACCACUGGAAUUCUCGGGUGCCAA: 0.408
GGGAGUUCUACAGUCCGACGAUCAGAAUAGGGACCGUGGGGUAUGGGGUGGGCAGUUAGAGGUUGGUCAUCCAGCAGUCAGAUGUGUCCUCGGUCCUCUGUGGCCCUCCGUUGCCGCCUGUGUGCUUUGCCCGUGGAAUUCUCGGGUGCCAA: 0.653
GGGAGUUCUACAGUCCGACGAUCGUUGGGCAUUCAAGGGAAUGGAAGAAAACAAACCACAUGCCUUUAACAGAUGAACUGUAAUGACGACCUGCUAACUGCUAGCCUUCAGCGCUAUCUGUUCCCUCACACAGUGGAAUUCUCGGGUGCCAA: 0.417

Sample 5 — technique: DHFR PCA, deep sequencing; matrix: yeast; with: (+)-ABA 0.11 µM; baseline: wild-type fitted maximum; reading: higher = stronger binding; quantity: relative binding score
Target: ABI1, truncated, D143A, DHFR fusion (Arabidopsis thaliana)
Notes: methotrexate growth selection, single substitutions
Parent: PYL1, truncated, DHFR fusion (Arabidopsis thaliana); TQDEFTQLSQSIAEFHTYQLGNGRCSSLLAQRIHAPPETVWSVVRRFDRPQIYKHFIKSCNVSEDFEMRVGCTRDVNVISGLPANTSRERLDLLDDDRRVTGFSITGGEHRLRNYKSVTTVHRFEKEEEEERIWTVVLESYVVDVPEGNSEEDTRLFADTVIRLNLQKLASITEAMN; partner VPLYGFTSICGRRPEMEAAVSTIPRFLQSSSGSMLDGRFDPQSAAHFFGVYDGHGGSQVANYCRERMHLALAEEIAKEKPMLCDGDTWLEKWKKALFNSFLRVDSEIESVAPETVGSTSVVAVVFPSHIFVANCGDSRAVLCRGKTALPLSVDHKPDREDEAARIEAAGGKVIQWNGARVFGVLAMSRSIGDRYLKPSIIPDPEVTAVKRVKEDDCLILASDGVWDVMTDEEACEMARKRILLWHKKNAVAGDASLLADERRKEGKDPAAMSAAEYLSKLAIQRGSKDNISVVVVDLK
L91F: -1.77%
D48A: -4.43%
I52Q: 16.7%
Q7D: 29%
V143M: -0.586%
E64W: 3.77%
V145Q: 0.00162%
V44D: -0.824%
V136D: -1.21%
L94N: -7.64%
D96F: -10.1%
N149K: 3.74%
T173N: 3.55%
S117T: -1.2%
A175S: 32.9%
K168V: 2.24%
V43P: -7.98%
R113N: 18.1%
W134E: 47.2%

Excerpt of the above (sample 5):
L91F: -1.77%
D48A: -4.43%
I52Q: 16.7%
Q7D: 29%
V143M: -0.586%
E64W: 3.77%
V145Q: 0.00162%
V44D: -0.824%
V136D: -1.21%
L94N: -7.64%
D96F: -10.1%
N149K: 3.74%
